Measurements gathered from unrelated publications.
Each line is one published result; not all experiments were run side by side. ± marks the error that the study gave.
Cell line: MCF7

N=C(N)NCCC[C@H](NC(=O)[C@H](Cc1c[nH]c2ccccc12)NC(=O)[C@H](CCC(N)=O)NC(=O)[C@H](Cc1c[nH]c2ccccc12)NC(=O)[C@H](CCCNC(=N)N)NC(=O)[C@H](Cc1c[nH]c2ccccc12)NC(=O)[C@H](CCC(N)=O)NC(=O)[C@@H](N)Cc1c[nH]c2ccccc12)C(N)=O  selectivity ratio (reference: fibroblast IC50 over MCF7 IC50): > 1.1
COc1cc(/C=C/C(=O)CC(C)=O)ccc1O  GSH/GSSG ratio increase (25 µM, 48 h; reference: untreated): ~7 fold
CC(=O)[O][Pt]([Cl])([Cl])[O]C(C)=O.N.N  DNA-bound platinum (GF-AAS; 5 µM, 24 h; reference: cellular platinum): 5%
CN(C)c1cccc2c(S(=O)(=O)NCCCCCC(=O)NO)cccc12  cells in G2 phase (cell cycle, propidium iodide flow cytometry; 1 µM): 11.3%
COc1cc2c(=O)c(-c3ccc4c(c3)OCO4)coc2c2c1OC(C)(C)C=C2  apoptotic cells (annexin V/PI flow cytometry; 20 µM, 48 h): 39.3%
CN1CCC2(CC1)C/C(=N\NC(=O)Nc1ccccc1)c1ccccc1O2  cell cycle distribution (PI staining, flow cytometry; concentration not given, %S): 43.2%
COc1ccc(NC(=O)CCc2nc3cc(Cl)ccc3[nH]c2=O)cc1  pre-G1 phase cells (flow cytometry; concentration not given; reference: untreated control): ~1.38 fold
C[C@]12CC[C@@H]3c4ccc(OCC(=O)N[C@@H](CCCCNC(=O)CN5CCN(CC(=O)[O-])CCN(CC(=O)[O-])CCN(CC(=O)[O-])CC5)C(=O)O)cc4CC[C@H]3[C@@H]1CCC2=O.[Lu+3] [lutetium-177 labelled]  Kd (saturation binding; 60 min, room temperature): 14.4 ± 3.3 nM
C[n+]1c(/C=C/c2ccc(N(c3ccccc3)c3ccccc3)cc2)cc(/C=C2\Sc3ccccc3N2CCCN2CCCC2)c2ccccc21  CTCF mRNA level (qRT-PCR; concentration not given): no effect
O=C1c2c(O)cc(O)cc2-c2c(-c3ccc(O)cc3)oc3cc(O)cc1c23  unique downregulated proteins (label-free MS proteomics; reference: tanespimycin): 70%
CCC(=C(c1ccc(Cl)cc1)c1ccc(OCCN2CCCCC2)cc1)c1ccccc1  inhibition (cell growth or viability; 10 µM): 63.1%
CCCCCCCCCCCC1N=C(N)N=C(N)N1c1ccc(Cl)cc1.Cl (racemic)  growth inhibition (concentration not given): ≤ 100%
CCCc1cc(O)nc(SCCOC(=O)[C@]2(C)CCC[C@]3(C)c4ccc(C(C)C)cc4CCC23)n1 (some centres unmarked)  apoptotic cells (annexin V-FITC/PI flow cytometry; 5 µM, 48 h): 5.87%
COc1ccc(CC(C)=C(c2ccc(Cl)cc2)c2ccc(OCCN3CCCCC3)cc2)cc1  inhibition (cell growth or viability; 10 µM): 18.3%
NS(=O)(=O)c1ccc(/N=N/c2ccc(O)c(C=O)c2)cc1  selectivity index (MTT; 48 h; reference: MCF10A IC50 over MCF7 IC50): 2.21
CC(C)(C)c1cc2c(O)c(c1)Cc1cc(C(C)(C)C)cc(c1OCC(=O)Nc1cncc3ccccc13)Cc1cc(C(C)(C)C)cc(c1O)Cc1cc(C(C)(C)C)cc(c1OCC(=O)Nc1cncc3ccccc13)COC2  apoptotic cells (annexin V-FITC/PI flow cytometry; 10 µM, 24 h): 46.6 ± 1.25%
COc1cccc2c1C(=O)c1c(O)c3c(c(O)c1C2=O)C[C@@](O)(C(=O)CO)C[C@@H]3O[C@H]1C[C@H](N)[C@H](O)[C@H](C)O1  ROS production (concentration not given, 4 h): increased
O=C(c1ccc2ccccc2c1)c1cn(-c2ccccc2)nc1C1=Nn2c(Cc3nnc4n3N=C(c3nn(-c5ccccc5)cc3C(=O)c3ccc5ccccc5c3)CS4)nnc2SC1  mRNA level (RT-PCR, measured: caspase-8; IC50, 48 h; reference: untreated): 6.5 fold
CCC[C@@H]1O[C@@H](Oc2c(-c3ccc(O)cc3)oc3cc(O)cc(O)c3c2=O)[C@H](OC(C)=O)[C@H](OC(C)=O)[C@H]1NC(C)=O  cyclin D1 level (inhibitor, immunoblot; 25 and 50 µM, together with: PMA): no effect
CC(Cc1ccc(Cl)cc1)=C(c1ccc(Cl)cc1)c1ccc(OCCN2CCCC2)cc1  inhibition (cell growth or viability; 10 µM): 69%
N=C(N)NCCC[C@H](NC(=O)[C@H](Cc1c[nH]c2ccccc12)NC(=O)[C@H](CCC(N)=O)NC(=O)[C@H](Cc1c[nH]c2ccccc12)NC(=O)[C@H](CCCNC(=N)N)NC(=O)[C@H](Cc1c[nH]c2ccccc12)NC(=O)[C@H](CCC(N)=O)NC(=O)[C@H](Cc1c[nH]c2ccccc12)NC(=O)[C@@H](N)CCCNC(=N)N)C(N)=O  caspase activation (flow cytometry; concentration not given, 2 h, extrinsic pathway): ~80%
NS(=O)(=O)c1ccc(/N=N/c2ccc(O)c(/C=N/c3nccs3)c2)cc1  selectivity index (MTT; 72 h; reference: MCF10A IC50 over MCF7 IC50): 1.92
CCc1c2c(nc3ccc(O)cc13)-c1cc3c(c(=O)n1C2)COC(=O)[C@@]3(CC)OC(=O)[C@H](N)C(C)C  EC50 (cell viability, MTT; 72 h): 450 nM
CC(=O)N[C@H](CCCNC(=N)N)C(=O)N[C@H](CCCCN)C(=O)N[C@H](Cc1ccc(O)cc1)C(=O)N[C@H](CS)C(N)=O  decrease in EdU-positive cells (concentration not given, 24 h): ~50%
CC(Cc1ccc(Cl)cc1)=C(c1ccc(O)cc1)c1ccc(Cl)cc1  growth inhibition (10 µM): no inhibition
COc1ccc(/C=C/C(=O)c2ccc(NC(=O)c3ccccc3CN3C(=O)c4ccccc4C3=O)cc2)c(OC)c1  late apoptotic cells (annexin V/PI staining; IC50, 24 h; reference: untreated): 45.2 fold
CN1CCN(c2ccc(C(=O)/C=C/Nc3ccc(S(N)(=O)=O)cc3)cc2)CC1  cells in %S phase (PI flow cytometry; IC50 concentration, 24 h): 25%
N=C(N)NCCC[C@@H]1NC(=O)[C@H](CCCCN)NC(=O)[C@@H](Cc2ccc(O)cc2)NC(=O)[C@H](CC(=O)O)NC(=O)CNC1=O  TGI (MTT; 48 h): > 100000 nM
CCCCCCCCCCCCCCCC(=O)NCCCC[C@@H](NC(=O)[C@@H](CCCNC(=N)N)NC(=O)[C@@H](CC(N)=O)NC(=O)[C@@H](CC(N)=O)NC(=O)[C@@H](CO)NC(=O)[C@@H](CCCNC(=N)N)NC(=O)[C@@H](CC(C)C)NC(=O)CNC(=O)[C@@H](CC(N)=O)NC(=O)CNC(=O)[C@H](NC(=O)[C@@H](CC(C)C)NC(=O)[C@@H](Cc1ccc(O)cc1)NC(C)=O)C(C)C)C(N)=O  TGI (48 h, 1% FBS): 400 ± 20 nM
COc1cc(OC)cc(C(O)c2c[nH]c3ncc(C(F)(F)F)cc23)c1 (centres unmarked)  inhibition (cell growth or viability; 10 µM, 72 h): 33%
CC(=NNC(=S)NN=C(C(=NO)c1ccccc1)c1ccccc1)c1ccccc1  relative protein level (Western blot, measured: Bax; IC50 concentration, 24 h; reference: untreated): 1.74 ± 0.05
O=C1c2ccccc2C(=O)c2c1ccc1c2C(C(=O)Nc2ccc(Cl)cc2)C(=O)C1c1ccccc1 (centres unmarked)  TGI (cell growth or viability): 67200 nM
CC1=[N+]2N=C(c3ccccc3)[O][Pd-2]2([Cl])[O+]=C2Oc3ccccc3C=C21 (centres unmarked)  selectivity index (cytotoxicity, MTT; 48 h; reference: WI-38 over MCF7 IC50): 3.37
O=C1c2ccccc2C(=O)c2c1ccc1c2C(C(=O)Nc2ccccc2)C(=O)C1c1ccccc1 (centres unmarked)  TGI (cell growth or viability): 22000 nM
COc1ccc(-c2nnc(-c3cc(-c4ccccc4)n(-c4ccc(S(N)(=O)=O)cc4)n3)o2)cc1  necrotic cells (Annexin V/PI; concentration not given; reference: untreated): 1.57 fold

A few entries again:
COc1cc2c(=O)c(-c3ccc4c(c3)OCO4)coc2c2c1OC(C)(C)C=C2  apoptotic cells (annexin V/PI flow cytometry; 20 µM, 48 h): 39.3%
CN1CCC2(CC1)C/C(=N\NC(=O)Nc1ccccc1)c1ccccc1O2  cell cycle distribution (PI staining, flow cytometry; concentration not given, %S): 43.2%
COc1ccc(NC(=O)CCc2nc3cc(Cl)ccc3[nH]c2=O)cc1  pre-G1 phase cells (flow cytometry; concentration not given; reference: untreated control): ~1.38 fold
C[C@]12CC[C@@H]3c4ccc(OCC(=O)N[C@@H](CCCCNC(=O)CN5CCN(CC(=O)[O-])CCN(CC(=O)[O-])CCN(CC(=O)[O-])CC5)C(=O)O)cc4CC[C@H]3[C@@H]1CCC2=O.[Lu+3] [lutetium-177 labelled]  Kd (saturation binding; 60 min, room temperature): 14.4 ± 3.3 nM
C[n+]1c(/C=C/c2ccc(N(c3ccccc3)c3ccccc3)cc2)cc(/C=C2\Sc3ccccc3N2CCCN2CCCC2)c2ccccc21  CTCF mRNA level (qRT-PCR; concentration not given): no effect
